Earlier results as cited in several papers.
± marks the error that the study gave.
Sequence of UniProt P35462 (whole entry, looked up): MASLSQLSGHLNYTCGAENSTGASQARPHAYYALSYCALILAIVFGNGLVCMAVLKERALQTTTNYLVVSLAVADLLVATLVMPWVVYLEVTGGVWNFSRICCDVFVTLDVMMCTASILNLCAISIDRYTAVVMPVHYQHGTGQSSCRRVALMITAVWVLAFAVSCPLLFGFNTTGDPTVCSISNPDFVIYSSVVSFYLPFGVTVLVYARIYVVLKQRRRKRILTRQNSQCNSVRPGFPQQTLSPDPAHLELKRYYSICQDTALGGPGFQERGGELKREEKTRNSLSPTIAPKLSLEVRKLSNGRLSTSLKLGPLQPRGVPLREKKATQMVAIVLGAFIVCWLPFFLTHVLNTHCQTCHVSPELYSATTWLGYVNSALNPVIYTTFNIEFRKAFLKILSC
Sequence of UniProt O00750 (whole entry, looked up): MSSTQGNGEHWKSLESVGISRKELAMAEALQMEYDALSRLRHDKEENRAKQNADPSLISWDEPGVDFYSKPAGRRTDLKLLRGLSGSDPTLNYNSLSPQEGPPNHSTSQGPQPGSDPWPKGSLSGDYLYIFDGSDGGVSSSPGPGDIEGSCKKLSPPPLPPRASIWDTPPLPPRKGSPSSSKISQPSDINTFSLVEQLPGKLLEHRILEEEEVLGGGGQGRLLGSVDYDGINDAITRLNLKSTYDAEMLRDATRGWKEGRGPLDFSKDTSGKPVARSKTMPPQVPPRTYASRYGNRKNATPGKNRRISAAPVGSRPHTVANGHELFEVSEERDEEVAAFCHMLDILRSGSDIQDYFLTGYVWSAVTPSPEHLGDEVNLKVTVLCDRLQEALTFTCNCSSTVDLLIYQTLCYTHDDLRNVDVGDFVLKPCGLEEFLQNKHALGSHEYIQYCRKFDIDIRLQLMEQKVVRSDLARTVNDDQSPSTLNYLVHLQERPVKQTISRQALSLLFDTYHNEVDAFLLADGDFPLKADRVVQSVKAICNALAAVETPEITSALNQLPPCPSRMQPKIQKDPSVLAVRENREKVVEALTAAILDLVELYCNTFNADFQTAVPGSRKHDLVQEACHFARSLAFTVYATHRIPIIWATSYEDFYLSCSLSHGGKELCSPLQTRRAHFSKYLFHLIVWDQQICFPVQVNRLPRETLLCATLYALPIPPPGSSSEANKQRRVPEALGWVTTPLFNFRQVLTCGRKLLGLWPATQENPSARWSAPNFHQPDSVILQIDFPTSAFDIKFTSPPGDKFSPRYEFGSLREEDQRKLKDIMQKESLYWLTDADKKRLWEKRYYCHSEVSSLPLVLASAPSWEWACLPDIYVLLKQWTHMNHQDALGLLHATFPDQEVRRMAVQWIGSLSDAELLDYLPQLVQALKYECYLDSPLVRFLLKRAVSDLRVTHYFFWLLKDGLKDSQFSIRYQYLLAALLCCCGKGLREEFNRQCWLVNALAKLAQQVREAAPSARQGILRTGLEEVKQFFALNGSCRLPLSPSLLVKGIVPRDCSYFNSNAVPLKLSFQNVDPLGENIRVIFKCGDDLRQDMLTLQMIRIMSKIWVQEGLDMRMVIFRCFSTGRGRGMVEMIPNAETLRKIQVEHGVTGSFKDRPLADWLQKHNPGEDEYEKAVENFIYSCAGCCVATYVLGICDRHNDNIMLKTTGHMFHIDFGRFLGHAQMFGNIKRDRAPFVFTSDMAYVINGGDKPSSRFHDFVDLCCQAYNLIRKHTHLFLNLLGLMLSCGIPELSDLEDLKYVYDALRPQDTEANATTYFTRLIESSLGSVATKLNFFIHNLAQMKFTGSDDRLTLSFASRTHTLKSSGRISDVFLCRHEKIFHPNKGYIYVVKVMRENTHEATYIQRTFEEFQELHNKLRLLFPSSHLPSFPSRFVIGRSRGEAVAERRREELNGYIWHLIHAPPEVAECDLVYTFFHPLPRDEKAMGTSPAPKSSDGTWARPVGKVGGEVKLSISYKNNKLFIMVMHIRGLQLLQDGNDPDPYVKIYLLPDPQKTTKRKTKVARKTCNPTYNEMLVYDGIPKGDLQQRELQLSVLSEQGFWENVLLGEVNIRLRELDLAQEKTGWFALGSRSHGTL
Sequence of UniProt P35408 (whole entry, looked up): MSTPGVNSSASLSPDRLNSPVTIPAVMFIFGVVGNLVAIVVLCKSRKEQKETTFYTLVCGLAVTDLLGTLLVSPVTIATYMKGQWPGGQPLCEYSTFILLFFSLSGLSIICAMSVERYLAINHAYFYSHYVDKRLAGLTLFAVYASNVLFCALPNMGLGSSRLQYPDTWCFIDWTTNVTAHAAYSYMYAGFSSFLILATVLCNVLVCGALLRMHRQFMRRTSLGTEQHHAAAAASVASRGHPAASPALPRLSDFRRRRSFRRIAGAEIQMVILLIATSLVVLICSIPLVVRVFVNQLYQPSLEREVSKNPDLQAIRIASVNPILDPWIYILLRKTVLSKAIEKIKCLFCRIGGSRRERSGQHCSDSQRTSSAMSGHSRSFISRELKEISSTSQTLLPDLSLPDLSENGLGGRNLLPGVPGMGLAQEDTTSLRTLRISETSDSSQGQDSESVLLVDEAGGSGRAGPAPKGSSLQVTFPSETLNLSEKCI
Sequence of UniProt Q9UEE5 (whole entry, looked up): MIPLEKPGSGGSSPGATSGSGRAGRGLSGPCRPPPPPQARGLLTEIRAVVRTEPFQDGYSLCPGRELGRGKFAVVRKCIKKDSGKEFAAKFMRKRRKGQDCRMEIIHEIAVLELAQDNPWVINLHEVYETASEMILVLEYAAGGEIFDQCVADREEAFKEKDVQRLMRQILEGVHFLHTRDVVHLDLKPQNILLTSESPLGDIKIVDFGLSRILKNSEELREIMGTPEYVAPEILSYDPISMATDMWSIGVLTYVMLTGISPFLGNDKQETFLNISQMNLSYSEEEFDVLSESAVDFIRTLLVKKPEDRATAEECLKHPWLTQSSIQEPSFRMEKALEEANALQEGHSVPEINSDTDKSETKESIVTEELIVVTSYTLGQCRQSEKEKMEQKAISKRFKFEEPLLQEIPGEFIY
Sequence of UniProt P06536 (whole entry, looked up): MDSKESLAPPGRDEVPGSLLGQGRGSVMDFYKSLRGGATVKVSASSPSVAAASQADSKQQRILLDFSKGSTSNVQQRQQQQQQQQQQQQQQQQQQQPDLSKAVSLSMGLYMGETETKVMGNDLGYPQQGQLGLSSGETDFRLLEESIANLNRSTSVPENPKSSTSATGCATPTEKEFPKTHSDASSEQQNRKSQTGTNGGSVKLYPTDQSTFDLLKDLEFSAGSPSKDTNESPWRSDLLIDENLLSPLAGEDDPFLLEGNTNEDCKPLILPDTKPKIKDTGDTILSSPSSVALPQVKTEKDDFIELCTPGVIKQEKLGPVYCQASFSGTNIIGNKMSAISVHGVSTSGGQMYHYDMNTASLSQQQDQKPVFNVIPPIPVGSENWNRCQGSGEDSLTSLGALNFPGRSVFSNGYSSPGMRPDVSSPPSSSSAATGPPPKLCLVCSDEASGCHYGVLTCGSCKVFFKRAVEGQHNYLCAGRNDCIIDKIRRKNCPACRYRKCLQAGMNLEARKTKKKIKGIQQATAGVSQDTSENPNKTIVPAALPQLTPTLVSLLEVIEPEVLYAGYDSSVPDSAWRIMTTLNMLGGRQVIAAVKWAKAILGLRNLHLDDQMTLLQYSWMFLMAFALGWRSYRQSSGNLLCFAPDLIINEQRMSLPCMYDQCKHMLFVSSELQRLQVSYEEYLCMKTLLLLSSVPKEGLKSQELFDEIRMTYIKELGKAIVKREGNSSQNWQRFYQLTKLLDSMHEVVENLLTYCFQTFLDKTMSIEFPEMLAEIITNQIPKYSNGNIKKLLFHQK
Sequence of UniProt P35348 (whole entry, looked up): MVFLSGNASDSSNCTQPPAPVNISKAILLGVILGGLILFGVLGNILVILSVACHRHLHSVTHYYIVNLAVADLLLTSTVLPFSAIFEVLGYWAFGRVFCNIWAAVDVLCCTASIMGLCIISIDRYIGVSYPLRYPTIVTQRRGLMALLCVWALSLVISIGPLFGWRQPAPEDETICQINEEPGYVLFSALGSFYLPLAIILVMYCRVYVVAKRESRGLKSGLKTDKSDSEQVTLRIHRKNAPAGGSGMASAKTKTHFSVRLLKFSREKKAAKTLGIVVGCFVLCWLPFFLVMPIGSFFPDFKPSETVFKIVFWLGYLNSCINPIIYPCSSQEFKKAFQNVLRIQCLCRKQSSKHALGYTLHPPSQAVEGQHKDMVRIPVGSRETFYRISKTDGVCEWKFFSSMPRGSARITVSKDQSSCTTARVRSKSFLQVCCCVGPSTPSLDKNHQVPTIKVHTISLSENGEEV
Sequence of UniProt Q9NRG4 (whole entry, looked up): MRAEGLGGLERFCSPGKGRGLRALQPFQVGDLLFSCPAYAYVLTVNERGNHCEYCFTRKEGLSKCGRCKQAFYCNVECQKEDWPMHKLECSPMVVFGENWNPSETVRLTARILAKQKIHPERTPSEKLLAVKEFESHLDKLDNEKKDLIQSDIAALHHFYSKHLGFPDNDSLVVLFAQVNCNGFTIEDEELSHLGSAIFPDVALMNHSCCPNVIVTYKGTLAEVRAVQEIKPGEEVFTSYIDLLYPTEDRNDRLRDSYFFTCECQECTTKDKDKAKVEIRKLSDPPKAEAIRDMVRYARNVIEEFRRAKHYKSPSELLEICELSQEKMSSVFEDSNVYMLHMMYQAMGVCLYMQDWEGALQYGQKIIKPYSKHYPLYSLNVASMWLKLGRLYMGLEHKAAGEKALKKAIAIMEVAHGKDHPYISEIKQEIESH
Sequence of UniProt Q00535 (whole entry, looked up): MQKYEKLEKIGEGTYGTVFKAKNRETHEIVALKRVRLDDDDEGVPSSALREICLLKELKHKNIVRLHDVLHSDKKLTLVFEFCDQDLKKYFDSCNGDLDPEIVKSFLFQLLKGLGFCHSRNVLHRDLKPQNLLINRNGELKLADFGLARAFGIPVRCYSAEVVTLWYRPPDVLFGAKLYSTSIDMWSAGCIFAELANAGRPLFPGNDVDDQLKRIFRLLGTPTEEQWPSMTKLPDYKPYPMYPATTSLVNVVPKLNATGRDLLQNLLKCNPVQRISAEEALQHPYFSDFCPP

| SMILES | target or system | assay | test system | setting | scale | endpoint | result |
| --- | --- | --- | --- | --- | --- | --- | --- |
| O=C(NCc1c(F)cc(F)cc1F)c1cn2c(c(O)c1=O)C(=O)N1[C@H]3CC[C@H](C3)O[C@@H]1C2 | HIV-1 integrase-DNA complex |  |  |  |  | dissociation half-life | ~163 h |
| Nc1cc(C(F)(F)F)c(-c2nc(N3CCOCC3)nc(N3CCOCC3)n2)cn1 | CDK5 (Homo sapiens, UniProt Q00535) | enzyme activity |  | 10 µM | relative to: untreated | remaining activity | 85% |
| N[C@@H](CC(=O)c1ccccc1)C(=O)O | kynureninase (Pseudomonas fluorescens) | substrate |  |  |  | benzoate formation rate | ~1 s⁻¹ |
| Nc1ccn([C@H]2C[C@H](O)[C@@H](CO)O2)c(=O)n1 | cytidine deaminase (human) | substrate |  | concentration not given |  | Km | 3.9 µM |
| COc1c(N2C[C@@H]3CCCN[C@@H]3C2)c(F)cc2c(=O)c(C(=O)O)cn(C3CC3)c12 | UGT1A1 (Homo sapiens, UniProt P22309) | substrate |  |  |  | Km | 3400 µM |
| CC(C)=CCCC(C)=CC=O (mixture of isomers) | 12-oxophytodienoate reductase OPR3 (isoform 3) | ene-reductase biotransformation, substrate |  |  |  | conversion | 90 to 95% |
| O=C(Nc1nc2ccccc2[nH]1)c1ccccc1 | RAR-related orphan receptor gamma |  |  | PubChem AID 2546 |  | activity | 7.9 µM |
| C=CC(=O)N1CCC[C@@H](n2nc(-c3ccc(Oc4ccccc4)cc3)c3c(N)ncnc32)C1 | ITK (Homo sapiens, UniProt Q08881) |  | human subjects, PBMCs | up to 840 mg |  | receptor occupancy | 50% |
| CC(C)CCC[C@@H](C)[C@H]1CC[C@H]2[C@@H]3[C@H](O)CC4=CC(=O)CC[C@]4(C)[C@H]3CC[C@]12C | 7-alpha-hydroxycholest-4-en-3-one 12-alpha-hydroxylase (Homo sapiens, UniProt Q9UNU6) | substrate |  |  |  | Km | 0.5 µM |
| O=[N+]([O-])c1cc(C(F)(F)F)ccc1NCc1ccco1 | Endothelial PAS domain-containing protein 1, PAS-B domain (EPAS1, Homo sapiens, UniProt Q99814) | isothermal titration calorimetry |  | concentration not given, <0.1% DMSO |  | binding enthalpy | -35.1 kJ/mol |
| CCN(c1cc(-c2ccc(CN3CCOCC3)cc2)cc(C(=O)NCc2c(C)cc(C)[nH]c2=O)c1C)C1CCOCC1 | SMYD2 (Homo sapiens, UniProt Q9NRG4) | enzyme activity, inhibitor |  | 1 µM |  | inhibition | 1 ± 2% |
| Nc1ncn([C@@H]2O[C@H](CO)[C@@H](O)[C@H]2O)c(=O)n1 | cytidine deaminase (human) | substrate |  | concentration not given |  | Km | 28 µM |
| CCC(=O)O[C@]1(C(=O)SCF)[C@H](C)C[C@H]2[C@@H]3C[C@H](F)C4=CC(=O)C=C[C@]4(C)[C@@]3(F)[C@@H](O)C[C@@]21C | Nr3c1 (Rattus norvegicus, UniProt P06536) |  | rat, spleen | intravenous, 90 nmol/kg, 4.005 (unit not given) |  | receptor occupancy | 45.7% |
| CNC(C)C1CCC(N)C(OC2C(N)CC(N)C(OC3OCC(C)(O)C(NC)C3O)C2O)O1 (stereo not drawn) | Escherichia coli |  | clinical isolate RKI-No_75/15 |  |  | MIC | > 8 mg/L |
| O=C(c1ccc2c(c1)OCCO2)N1CCN(S(=O)(=O)c2c(F)cccc2F)CC1 | Pyruvate kinase PKM (PKM, Homo sapiens, UniProt P14618) | activator |  | concentration not given |  | activation | inactive |
| CC(C)CCC[C@@H](C)[C@H]1CC[C@H]2C3=CC=C4C[C@@H](O)CC[C@@]4(C)[C@@H]3CC[C@]12C | CYP27A1 (Homo sapiens, UniProt Q02318) | substrate | phospholipid vesicles |  |  | kcat | 1.27 s⁻¹ |
| Nc1ncnc2c1ncn2[C@@H]1O[C@H](COP(=O)(O)OP(=O)(O)OP(=O)(O)O)[C@@H](O)[C@H]1O | asparagine synthetase (Escherichia coli) | substrate |  |  |  | Km | 270 µM |
| CC(C)(O/N=C(\C(=O)N[C@@H]1C(=O)N2C(C(=O)[O-])=C(C[N+]3(CCNC(=O)c4ccc(O)c(O)c4Cl)CCCC3)CS[C@H]12)c1csc(N)n1)C(=O)O | NDM-9 | hydrolysis by enzyme, substrate |  |  |  | Km | 53 µM |
| COc1cccc(OC)c1-c1cc(C(=O)NC2(C(=O)O)CCCCC2)nn1-c1cccc2ccccc12 | Ntsr1 (Rattus norvegicus, UniProt P20789) | antagonist, FLIPR calcium |  |  |  | Ke | 230 ± 79 nM |
| Cc1cc(O)c2c(c1)C(=O)c1cc(O)cc(O)c1C2=O | DRD3 (Homo sapiens, UniProt P35462) | agonist |  | 50 µM |  | activation | 75.6 ± 12.9% |
| COc1cc2c3c(c1OC)-c1cc4c(cc1CC3N(C)CC2)OCO4 (stereo not drawn) | ADRA1A (Homo sapiens, UniProt P35348) | antagonist |  |  |  | Ke | 36 ± 7 nM |
| CCS(=O)(=O)N1CC(CC#N)(n2cc(-c3ncnc4[nH]ccc34)cn2)C1 | bovine serum albumin |  |  | 308 K |  | binding constant | 2450 M⁻¹ |
| N=C1NC(=O)C2(CCc3ccccc32)C(=O)N1 (stereo not drawn) | GABA-A receptor alpha-1/beta-3 (GABRA1/GABRB3, Homo sapiens, UniProt P14867+P28472) | reversal, anesthetic-enhanced desensitization |  | concentration not given, α1β3 receptor | higher is stronger | inhibition | 75% |
| C[N+]1(C)CCC(OC(=O)C(c2ccccc2)c2ccccc2)CC1.[I-] | CHRM2 (Homo sapiens, UniProt P08172) |  |  | historical reference value |  | Hill coefficient | 1 |
| Cc1nc(NC(=O)N2CCC[C@H]2C(N)=O)sc1-c1ccnc(C(C)(C)C(F)(F)F)c1 | PIK3C2B (Homo sapiens, UniProt O00750) | KinomeScan competition binding |  | 10 µM |  | remaining binding | 4% |
| O=C(c1cc(-c2cc3c(cc2C(=O)N2Cc4ccccc4C[C@H]2CN2CCOCC2)OCO3)n2c1CCCC2)N(c1ccccc1)c1ccc(O)cc1 | BCL-2 G101V | competitive binding |  | concentration not given | relative to: G101V over wild type | Ki fold change | 100 |
| CC/C=C(\C)C=O | 12-oxophytodienoate reductase OPR3 (isoform 3) | ene-reductase biotransformation, substrate |  |  |  | conversion | 70% |
| Cc1cc(NC(=O)c2cccc(NC(=O)/C=C/CN(C)C)c2)ccc1Nc1nccc(-c2cccnc2)n1 | STK17A (Homo sapiens, UniProt Q9UEE5) | enzyme activity, inhibitor |  | 1 µM | relative to: vehicle | remaining activity | 24% |
| CC1(C)S[C@@H]2[C@H](NC(=O)[C@H](N)c3ccccc3)C(=O)N2[C@H]1C(=O)O | Escherichia coli |  | clinical isolate RKI-No_515/16 |  |  | MIC | > 16 mg/L |
| CCCCC[C@H](O)/C=C/[C@H]1[C@H](O)CC(=O)[C@@H]1C/C=C\CCCC(=O)O | PTGER4 (Homo sapiens, UniProt P35408) |  |  | historical reference value |  | Hill coefficient | 0.9 |

Excerpt of the above:
| SMILES | target or system | assay | test system | setting | scale | endpoint | result |
| --- | --- | --- | --- | --- | --- | --- | --- |
| N[C@@H](CC(=O)c1ccccc1)C(=O)O | kynureninase (Pseudomonas fluorescens) | substrate |  |  |  | benzoate formation rate | ~1 s⁻¹ |
| Nc1ncn([C@@H]2O[C@H](CO)[C@@H](O)[C@H]2O)c(=O)n1 | cytidine deaminase (human) | substrate |  | concentration not given |  | Km | 28 µM |
| Cc1cc(O)c2c(c1)C(=O)c1cc(O)cc(O)c1C2=O | DRD3 (Homo sapiens, UniProt P35462) | agonist |  | 50 µM |  | activation | 75.6 ± 12.9% |
| CCCCC[C@H](O)/C=C/[C@H]1[C@H](O)CC(=O)[C@@H]1C/C=C\CCCC(=O)O | PTGER4 (Homo sapiens, UniProt P35408) |  |  | historical reference value |  | Hill coefficient | 0.9 |
